Assay results pooled from the literature.
Parts stem from different laboratories: compare values within a part only. Changes are numbered by the printed parent chain.

Series 1 — method: RNA Bind-n-Seq; form: RNA; matrix: in vitro; tested at: 200 nM; notes: whole 134-nt RNA, ends assumed; together with: 150 mM KCl; baseline: input library; direction: higher = stronger binding
Target: Ras GTPase-activating protein-binding protein 1, full length (G3BP1, Homo sapiens, UniProt Q13283)
Chain of UniProt Q13283 (whole entry, looked up): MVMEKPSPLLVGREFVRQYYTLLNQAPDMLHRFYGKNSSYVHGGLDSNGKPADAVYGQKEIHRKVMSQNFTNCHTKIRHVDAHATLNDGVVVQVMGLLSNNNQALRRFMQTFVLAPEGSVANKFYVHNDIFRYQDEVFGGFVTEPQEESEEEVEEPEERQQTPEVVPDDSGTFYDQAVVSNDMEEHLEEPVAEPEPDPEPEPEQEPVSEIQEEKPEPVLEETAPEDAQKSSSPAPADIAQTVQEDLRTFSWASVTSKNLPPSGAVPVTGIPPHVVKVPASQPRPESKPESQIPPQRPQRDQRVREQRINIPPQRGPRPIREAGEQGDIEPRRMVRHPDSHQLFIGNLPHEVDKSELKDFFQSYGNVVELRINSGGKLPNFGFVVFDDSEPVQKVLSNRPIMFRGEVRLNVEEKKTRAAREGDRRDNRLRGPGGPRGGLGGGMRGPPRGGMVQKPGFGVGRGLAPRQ
Constant ends, left off below: GGGAGUUCUACAGUCCGACGAUC … UGGAAUUCUCGGGUGUCAAGG
Strand | log2 enrichment
AGUCCUGUGCUACACAUCGUAUGUACCGAAUCGGGGAAAAAGGAAAAAGGAAAAAGGGAAAGUAUUAUGUUACGCCGUUCGGAUCUGCAC | -0.745
UCAAGUCCUGUGCUACACAUCGUAUGUACCGAAUCGGGUUGGGUUGGGGUUGGGAAAGUAUUAUGUUACGCCGUUCGGAUCUGCACUUCC | 1.09
CCUGUGCUACACAUCGUAUGUACCGAAUCGGGGAAAAAAAGGGGAAAAAAAGGGGAGGGGAAAGUAUUAUGUUACGCCGUUCGGAUCUGC | 0.329
CCUGUGCUACACAUCGUAUGUACCGAAUCGGGGAAAAAAGGAAAAAAGGGAAAAAAGGGGAAAGUAUUAUGUUACGCCGUUCGGAUCUGC | -0.476
AGUGGGUUUGUUGAAGCAGUUGCUGGUGCAACAGCUAGGUUUGACUGAGAAGAGCGUUCAGGAAGACUGGCAACAUUUCCCAAGAUACAG | -1.97
GCAGGAAGUAAAAACAAAUGGAAAUGCUUCGGAUAGUGGCAUGGGUGGGGGUUGCUAAGGAAAGGGUGGGAUGGGAGUGGGUAAAGAGUU | 0.762
UCCUGUGCUACACAUCGUAUGUACCGAAUCGGGGAAAGGGGUUUUUGGGGUUUUUGGGGAAAGUAUUAUGUUACGCCGUUCGGAUCUGCA | 0.795
UGGGAGGUGGAUUUUGUUUAUUUUUUUAGCUCAUUUCCAGGGGUGGGAAUUUUUUUUUAAUAUGUCUCAUGAAUAAAGUUGUUUUUGAAA | 0.0833

Series 2 — method: DHFR PCA, deep sequencing; matrix: yeast; together with: (+)-ABA 0.39 µM; baseline: wild-type fitted maximum; direction: higher = stronger binding
Target: ABI1, truncated, D143A, DHFR fusion (Arabidopsis thaliana)
Notes: methotrexate growth selection, single substitutions
Starting sequence: PYL1, truncated, DHFR fusion (Arabidopsis thaliana); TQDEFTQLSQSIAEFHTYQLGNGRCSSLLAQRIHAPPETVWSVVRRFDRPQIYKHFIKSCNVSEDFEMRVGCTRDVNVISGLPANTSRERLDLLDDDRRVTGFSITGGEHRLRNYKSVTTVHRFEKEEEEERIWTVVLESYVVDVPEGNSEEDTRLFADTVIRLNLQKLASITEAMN
Variant | relative binding score [%]
A175N | 25.6
S26M | 8.5
T135E | 0.316
E127F | 40.5
L91V | -6.55
C72N | 18
I105A | -5.44
L93P | 7.57

Series 3 — target: CCNB1, cyclin fold, Cln2 fusion (human); method: yeast growth competition, sequencing; matrix: yeast; notes: strong parent motif; baseline: not given; direction: higher = stronger binding
Starting sequence: PKN2 docking peptide (human); VSAVRKLDFSDTM; partner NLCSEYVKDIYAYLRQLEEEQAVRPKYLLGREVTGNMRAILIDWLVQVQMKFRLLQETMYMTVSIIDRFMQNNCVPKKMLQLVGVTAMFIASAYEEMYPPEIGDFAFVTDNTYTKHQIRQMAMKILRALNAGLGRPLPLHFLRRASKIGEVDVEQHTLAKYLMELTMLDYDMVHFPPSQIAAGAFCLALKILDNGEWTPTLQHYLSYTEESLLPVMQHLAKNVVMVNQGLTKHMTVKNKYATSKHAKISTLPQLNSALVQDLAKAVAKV
Variant | normalised enrichment score
R5P | 0.185
A3I | 5.49
S2R | 2.75
F9K | 0.445
S10D | 5.2
S2Y | 3.49
T12P | 3.94
R5L | 1.86

Mixed results
Starting sequence: PafA, mature enzyme, eGFP fusion (Elizabethkingia meningoseptica, UniProt Q9KJX5); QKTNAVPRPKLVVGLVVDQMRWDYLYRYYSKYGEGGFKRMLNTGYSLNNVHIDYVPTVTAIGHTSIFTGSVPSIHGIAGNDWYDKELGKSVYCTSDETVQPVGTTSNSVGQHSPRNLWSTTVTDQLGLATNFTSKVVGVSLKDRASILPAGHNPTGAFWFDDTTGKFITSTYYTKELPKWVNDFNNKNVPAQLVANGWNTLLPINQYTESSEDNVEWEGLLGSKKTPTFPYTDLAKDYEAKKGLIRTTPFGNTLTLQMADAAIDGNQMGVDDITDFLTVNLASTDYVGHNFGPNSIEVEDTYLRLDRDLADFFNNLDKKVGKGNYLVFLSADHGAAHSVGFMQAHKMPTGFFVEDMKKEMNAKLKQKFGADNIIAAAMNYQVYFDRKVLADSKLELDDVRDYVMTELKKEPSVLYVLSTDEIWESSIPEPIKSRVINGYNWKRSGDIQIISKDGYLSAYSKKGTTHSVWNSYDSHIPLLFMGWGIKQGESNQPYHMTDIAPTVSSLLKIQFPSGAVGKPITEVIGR
Variant | target | test | test system | setting | scale | measurement | value
Y380V | tungstate, free oxyanion | microfluidic competitive inhibition | in vitro, cell-free expressed | not given, derived from inhibition constants, unchanged parent 2230 nM | lower = stronger binding | oxyanion analog dissociation constant | 1.98 µM

A few entries again (series 3):
Variant | normalised enrichment score
A3I | 5.49
S2R | 2.75
F9K | 0.445
S10D | 5.2
